Published values of several laboratories.
Parts stem from different laboratories: compare values within a part only.
UniProt Q8IYT8, sequence (whole entry, looked up): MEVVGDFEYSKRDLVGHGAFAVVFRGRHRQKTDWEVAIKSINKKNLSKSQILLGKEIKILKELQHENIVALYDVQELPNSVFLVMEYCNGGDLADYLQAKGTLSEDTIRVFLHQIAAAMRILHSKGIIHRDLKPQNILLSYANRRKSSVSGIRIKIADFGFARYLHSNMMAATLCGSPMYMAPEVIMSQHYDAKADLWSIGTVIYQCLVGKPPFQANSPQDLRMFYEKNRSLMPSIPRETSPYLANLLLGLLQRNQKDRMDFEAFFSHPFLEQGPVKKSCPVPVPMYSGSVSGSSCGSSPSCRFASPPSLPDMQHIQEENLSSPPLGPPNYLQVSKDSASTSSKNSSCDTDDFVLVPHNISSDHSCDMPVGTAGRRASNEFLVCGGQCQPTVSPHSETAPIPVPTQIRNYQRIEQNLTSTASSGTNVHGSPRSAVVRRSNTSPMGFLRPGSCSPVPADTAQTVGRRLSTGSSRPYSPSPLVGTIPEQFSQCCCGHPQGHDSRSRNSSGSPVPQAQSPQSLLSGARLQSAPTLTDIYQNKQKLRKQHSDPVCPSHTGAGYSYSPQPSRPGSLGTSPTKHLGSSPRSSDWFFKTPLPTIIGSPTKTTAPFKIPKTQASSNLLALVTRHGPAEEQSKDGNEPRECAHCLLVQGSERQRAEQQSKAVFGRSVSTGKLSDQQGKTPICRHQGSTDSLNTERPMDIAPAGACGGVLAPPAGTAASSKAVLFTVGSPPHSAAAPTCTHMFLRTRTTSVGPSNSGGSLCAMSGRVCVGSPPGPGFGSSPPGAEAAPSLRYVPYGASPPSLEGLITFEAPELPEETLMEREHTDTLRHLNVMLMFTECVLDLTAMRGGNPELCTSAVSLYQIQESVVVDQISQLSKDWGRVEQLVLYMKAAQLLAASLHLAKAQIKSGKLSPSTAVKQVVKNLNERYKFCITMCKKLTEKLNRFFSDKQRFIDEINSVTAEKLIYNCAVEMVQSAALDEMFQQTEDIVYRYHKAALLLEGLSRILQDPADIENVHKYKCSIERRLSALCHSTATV

Series 1 — effect on: enzyme activity; concentration: 5 µM; endpoint: remaining activity
SMILES: O=C(Nc1cnn(-c2csc(C(=O)NC3COC3)c2)c1)Nc1ccccc1Cl
target = Serine/threonine-protein kinase ULK2 (ULK2, Homo sapiens, UniProt Q8IYT8); how to read = relative to: untreated control; result = 195%
target = Vascular endothelial growth factor receptor 3 (FLT4, Homo sapiens, UniProt P35916); how to read = relative to: untreated control; result = 93.8%
target = Inactive tyrosine-protein kinase PEAK1 (PEAK1, Homo sapiens, UniProt Q9H792); assay = inhibitor; result = 91.4%
target = Proto-oncogene tyrosine-protein kinase Src (SRC, Homo sapiens, UniProt P12931); how to read = relative to: untreated control; result = 85.5%
target = cAMP-dependent protein kinase catalytic subunit beta (PRKACB, Homo sapiens, UniProt P22694); how to read = relative to: untreated control; result = 97.7%
target = Myosin-IIIa (MYO3A, Homo sapiens, UniProt Q8NEV4); how to read = relative to: untreated control; result = 91.5%
target = Calcium/calmodulin-dependent protein kinase kinase 2 (CAMKK2, Homo sapiens, UniProt Q96RR4); how to read = relative to: untreated control; result = 84.1%
target = Insulin receptor (INSR, Homo sapiens, UniProt P06213); how to read = relative to: untreated control; result = 95.6%
target = 3-phosphoinositide-dependent protein kinase 1 (PDPK1, Homo sapiens, UniProt O15530); how to read = relative to: untreated control; result = 94.3%

Series 2 — effect on: enzyme activity; mode: inhibitor; concentration: 10 µM; endpoint: inhibition
Target: Calcium/calmodulin-dependent protein kinase type II subunit alpha (CAMK2A, Homo sapiens, UniProt Q9UQM7)
UniProt Q9UQM7, sequence (whole entry, looked up): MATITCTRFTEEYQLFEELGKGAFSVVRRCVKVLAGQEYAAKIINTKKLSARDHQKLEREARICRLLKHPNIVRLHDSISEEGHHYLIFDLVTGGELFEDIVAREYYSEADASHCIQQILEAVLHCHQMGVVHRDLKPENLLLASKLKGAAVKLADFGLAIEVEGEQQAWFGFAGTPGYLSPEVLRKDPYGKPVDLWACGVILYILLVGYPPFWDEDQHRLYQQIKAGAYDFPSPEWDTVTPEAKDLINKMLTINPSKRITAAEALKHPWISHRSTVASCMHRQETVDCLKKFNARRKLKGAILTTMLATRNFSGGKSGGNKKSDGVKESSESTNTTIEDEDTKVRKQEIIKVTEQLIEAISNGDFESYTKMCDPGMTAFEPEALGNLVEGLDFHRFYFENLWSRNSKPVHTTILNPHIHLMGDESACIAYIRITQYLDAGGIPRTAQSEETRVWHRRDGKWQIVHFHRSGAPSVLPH
Structure (SMILES) = CC1=C(CC[C@@H](C)CO[C@@H]2O[C@H](CO)[C@@H](O)[C@H](O)[C@H]2O)O[C@H]2C[C@H]3[C@@H]4CC=C5C[C@@H](O[C@@H]6O[C@H](CO)[C@@H](O[C@@H]7O[C@@H](C)[C@H](O)[C@@H](O)[C@H]7O)[C@H](O)[C@H]6O[C@@H]6O[C@@H](C)[C@H](O)[C@@H](O)[C@H]6O)CC[C@]5(C)[C@H]4CC[C@]3(C)[C@@H]12; result = -80%
Structure (SMILES) = CC(C)=CCC/C(C)=C\CO; result = 8%
Structure (SMILES) = Clc1ccccc1CN1CCc2sccc2C1; result = -6%
Structure (SMILES) = CC(=O)c1ccc(O)c(C(=O)O)c1; result = 1%
Structure (SMILES) = O=c1ccn([C@@H]2O[C@H](COP(=O)(O)OP(=O)(O)O)[C@@H](O)[C@H]2O)c(=O)[nH]1; result = 3%
Structure (SMILES) = OC[C@@H](O)[C@@H](O)[C@H](O)[C@H](O)CO (racemic); result = 17%
Structure (SMILES) = N[C@@H](CS(=O)O)C(=O)O; result = -3%
Structure (SMILES) = CN(CCN1CCC(OC(=O)Nc2ccccc2-c2ccccc2)CC1)C(=O)c1ccc(CN2CCC(C(N)=O)CC2)cc1; result = -9%

Series 3 — SMILES: O=c1nc(-c2ccccn2)sc2ccccc12; method: competition with immobilised ligand; concentration: 1 µM; endpoint: remaining binding
target = Receptor-type tyrosine-protein kinase FLT3 (FLT3, Homo sapiens, UniProt P36888, F691L/ITD); assay = binding; result = 100%
target = Dual specificity mitogen-activated protein kinase kinase 4 (MAP2K4, Homo sapiens, UniProt P45985); assay = binding; result = 100%
target = Platelet-derived growth factor receptor alpha (PDGFRA, Homo sapiens, UniProt P16234); assay = cell-free assay; result = 89%
target = Mitogen-activated protein kinase kinase kinase 5 (MAP3K5, Homo sapiens, UniProt Q99683); assay = binding; result = 75%
target = Insulin receptor (INSR, Homo sapiens, UniProt P06213); assay = cell-free assay; result = 100%
target = Mitogen-activated protein kinase kinase kinase kinase 1 (MAP4K1, Homo sapiens, UniProt Q92918); assay = binding; result = 100%
target = Serine/threonine-protein kinase BRSK1 (BRSK1, Homo sapiens, UniProt Q8TDC3); assay = binding; result = 91%
target = Serine/threonine-protein kinase BRSK2 (BRSK2, Homo sapiens, UniProt Q8IWQ3); assay = binding; result = 100%

Series 4 — effect on: enzyme activity; mode: inhibitor; concentration: 0.5 µM; relative to: control; endpoint: remaining activity
Target: Serine/threonine-protein kinase ULK2 (ULK2, Homo sapiens, UniProt Q8IYT8)
Compound = O=S(=O)(c1cccc2cnccc12)N1CCCNCC1; result = 101%
Compound = CO[C@H]1C[C@@H]2CC[C@@H](C)[C@@](O)(O2)C(=O)C(=O)N2CCCC[C@H]2C(=O)O[C@H]([C@H](C)C[C@@H]2CC[C@@H](O)[C@H](OC)C2)CC(=O)[C@H](C)/C=C(\C)[C@@H](O)[C@@H](OC)C(=O)[C@H](C)C[C@H](C)/C=C/C=C/C=C/1C; result = 120%
Compound = OCC(O)CCON=C1C(c2c(O)[nH]c3ccccc23)=Nc2ccccc21 (stereo not drawn); result = 102%
Compound = CC(C)[C@H](CO)Nc1nc(Nc2cc(N)cc(Cl)c2)c2ncn(C(C)C)c2n1; result = 74.9%
Compound = Cn1sc(=O)n(Cc2ccccc2)c1=O; result = 105%
Compound = O=C(O)c1ccc2c3c1cccc3c(=O)n1c3ccccc3nc21; result = 93.9%
Compound = COc1ccc(OC)c2c(=S)c3ccccc3[nH]c12; result = 94.7%
Compound = Nc1ccc2ncnc(NCCc3ccc(Oc4ccccc4)cc3)c2c1; result = 103%
Compound = C#Cc1cccc(Nc2ncnc3cc(OCCOC)c(OCCOC)cc23)c1; result = 98.7%
Compound = COc1ccc(CNC(=O)Nc2ncc([N+](=O)[O-])s2)cc1; result = 93.4%
Compound = O=C1NC(=O)C(c2cn(CCCn3ccnc3)c3ccccc23)=C1Nc1ccccc1; result = 91.7%
Compound = O=c1c2ccccc2[nH]c(=S)n1CCN1CCC(=C(c2ccc(F)cc2)c2ccc(F)cc2)CC1; result = 96.5%
Compound = Cn1c2ccccc2c2c3c(c4c5ccccc5n(CCC#N)c4c21)CNC3=O; result = 92.9%
Compound = CN(C)c1ccc(C=C2C(=O)Nc3ccccc32)cc1; result = 97.1%
Compound = COc1ccc(C(=O)Nc2sc3c(c2C(N)=O)CCCC3)cc1OC; result = 105%
Compound = NCCNc1ncc(C(N)=O)c(Nc2cccc(C(F)(F)F)c2)n1; result = 91.4%
Compound = O=C(CCCc1ccc(-c2ccccc2F)cc1)Nc1ccc(O)cc1; result = 116%
Compound = CCOC(=O)c1c(C)[nH]c(/C=C2\C(=O)Nc3ccccc32)c1C; result = 105%
Compound = N#CC(C#N)=C(N)/C(C#N)=C/c1ccc(O)cc1; result = 105%
Compound = O=C(Nc1cccc(Nc2cc(Nc3cccc(C(F)(F)F)c3)ncn2)c1)C1CC1; result = 102%
Compound = COc1cc2ncnc(Nc3ccc(Oc4ccccc4)cc3)c2cc1OC; result = 97.8%
Compound = Nc1[nH]nc2nc3ccccc3nc12; result = 95.9%
Compound = Cc1cccc(-c2[nH]c(C(C)(C)C)nc2-c2ccc3c(c2)OCO3)n1; result = 75.4%
Compound = Cc1ccc(Nc2nccc(N(C)c3ccc4c(C)n(C)nc4c3)n2)cc1S(N)(=O)=O; result = 102%
Compound = COc1cc2nccc(Oc3ccc(NC(=S)NC(=O)c4ccccc4C)cc3)c2cc1OC; result = 88.8%

Series 5 — effect on: enzyme activity; mode: inhibitor; concentration: 77 µM; relative to: untreated; endpoint: remaining activity
Target: DNA polymerase theta, ATPase domain (POLQ, Homo sapiens, UniProt O75417)
UniProt O75417, sequence (whole entry, unmodified, looked up): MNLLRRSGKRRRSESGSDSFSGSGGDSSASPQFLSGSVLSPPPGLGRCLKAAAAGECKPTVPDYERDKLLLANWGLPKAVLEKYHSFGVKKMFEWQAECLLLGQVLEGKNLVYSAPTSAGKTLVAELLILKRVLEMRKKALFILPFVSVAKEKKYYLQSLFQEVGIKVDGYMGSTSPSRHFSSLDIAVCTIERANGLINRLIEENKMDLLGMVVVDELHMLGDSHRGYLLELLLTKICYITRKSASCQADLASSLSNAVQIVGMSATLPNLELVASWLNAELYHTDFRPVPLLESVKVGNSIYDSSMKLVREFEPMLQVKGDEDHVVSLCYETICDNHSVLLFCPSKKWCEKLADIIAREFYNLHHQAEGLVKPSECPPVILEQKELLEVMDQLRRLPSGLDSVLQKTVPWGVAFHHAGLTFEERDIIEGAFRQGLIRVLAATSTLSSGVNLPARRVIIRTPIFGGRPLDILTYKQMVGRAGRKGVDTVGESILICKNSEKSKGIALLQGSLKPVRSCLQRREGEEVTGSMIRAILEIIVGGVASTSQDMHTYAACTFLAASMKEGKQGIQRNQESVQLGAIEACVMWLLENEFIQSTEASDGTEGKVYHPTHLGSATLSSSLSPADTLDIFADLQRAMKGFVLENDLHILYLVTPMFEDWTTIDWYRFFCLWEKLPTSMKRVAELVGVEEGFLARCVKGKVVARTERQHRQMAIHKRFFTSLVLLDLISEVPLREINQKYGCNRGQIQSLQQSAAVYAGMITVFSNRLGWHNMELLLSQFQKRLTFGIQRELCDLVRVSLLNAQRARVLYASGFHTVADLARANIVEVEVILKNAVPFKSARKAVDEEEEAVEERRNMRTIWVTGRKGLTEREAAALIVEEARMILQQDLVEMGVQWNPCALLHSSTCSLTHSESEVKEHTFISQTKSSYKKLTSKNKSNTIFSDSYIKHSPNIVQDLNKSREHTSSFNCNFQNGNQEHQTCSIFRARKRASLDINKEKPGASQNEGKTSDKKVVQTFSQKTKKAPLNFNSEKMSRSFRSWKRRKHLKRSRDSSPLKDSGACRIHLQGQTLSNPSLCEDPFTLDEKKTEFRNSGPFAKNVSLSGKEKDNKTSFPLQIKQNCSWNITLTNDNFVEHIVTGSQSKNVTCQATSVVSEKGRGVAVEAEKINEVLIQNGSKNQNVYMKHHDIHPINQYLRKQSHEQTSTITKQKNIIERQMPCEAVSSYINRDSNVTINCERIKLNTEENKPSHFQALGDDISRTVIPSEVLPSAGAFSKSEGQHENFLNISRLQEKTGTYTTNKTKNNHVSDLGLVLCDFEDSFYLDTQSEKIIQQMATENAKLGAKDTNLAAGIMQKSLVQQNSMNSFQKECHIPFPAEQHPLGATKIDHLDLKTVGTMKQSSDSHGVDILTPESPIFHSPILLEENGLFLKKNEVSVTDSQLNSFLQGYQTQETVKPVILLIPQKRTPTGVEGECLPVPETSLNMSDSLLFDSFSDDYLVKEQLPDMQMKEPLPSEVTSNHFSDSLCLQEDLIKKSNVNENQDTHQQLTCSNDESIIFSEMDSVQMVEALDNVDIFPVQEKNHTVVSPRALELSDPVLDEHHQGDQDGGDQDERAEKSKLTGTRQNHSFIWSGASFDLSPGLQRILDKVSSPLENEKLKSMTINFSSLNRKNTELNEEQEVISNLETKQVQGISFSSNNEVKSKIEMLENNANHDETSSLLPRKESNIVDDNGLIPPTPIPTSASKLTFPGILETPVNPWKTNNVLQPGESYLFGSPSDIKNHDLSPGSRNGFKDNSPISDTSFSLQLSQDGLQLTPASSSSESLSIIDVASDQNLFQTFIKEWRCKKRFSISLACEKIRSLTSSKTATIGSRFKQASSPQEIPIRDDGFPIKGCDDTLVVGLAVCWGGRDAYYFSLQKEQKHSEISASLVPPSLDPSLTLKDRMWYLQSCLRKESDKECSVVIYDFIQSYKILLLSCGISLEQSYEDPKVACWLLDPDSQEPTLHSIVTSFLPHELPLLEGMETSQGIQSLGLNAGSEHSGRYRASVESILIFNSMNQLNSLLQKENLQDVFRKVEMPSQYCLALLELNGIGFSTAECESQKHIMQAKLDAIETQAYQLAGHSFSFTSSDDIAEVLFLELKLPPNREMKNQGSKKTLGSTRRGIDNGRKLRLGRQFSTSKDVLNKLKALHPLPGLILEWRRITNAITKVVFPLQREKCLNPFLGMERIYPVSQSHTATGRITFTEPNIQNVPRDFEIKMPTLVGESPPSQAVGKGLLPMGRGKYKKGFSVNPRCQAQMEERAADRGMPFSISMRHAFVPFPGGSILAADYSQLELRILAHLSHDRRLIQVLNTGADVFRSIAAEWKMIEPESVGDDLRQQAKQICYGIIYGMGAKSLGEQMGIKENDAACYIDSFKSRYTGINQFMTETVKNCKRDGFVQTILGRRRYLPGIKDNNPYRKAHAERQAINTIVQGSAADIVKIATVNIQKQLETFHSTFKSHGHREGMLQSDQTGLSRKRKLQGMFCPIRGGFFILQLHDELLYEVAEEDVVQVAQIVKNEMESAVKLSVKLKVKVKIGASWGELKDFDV
Compound = CC[C@H]1OC(=O)[C@H](C)[C@@H](O[C@H]2C[C@@](C)(OC)[C@@H](O)[C@H](C)O2)[C@H](C)[C@@H](O[C@@H]2O[C@H](C)C[C@H](N(C)C)[C@H]2O)[C@](C)(O)C[C@@H](C)CN(C)[C@H](C)[C@@H](O)[C@]1(C)O; result = 101%
Compound = OCc1ccccc1O[C@@H]1O[C@H](CO)[C@@H](O)[C@H](O)[C@H]1O; result = 100%
Compound = COc1cc(OC)c(/C=C/S(=O)(=O)Cc2ccc(OC)c(NCC(=O)O)c2)c(OC)c1; result = 100%
Compound = CCNC(=O)c1noc(-c2cc(Cl)c(O)cc2O)c1-c1ccc(OC)cc1; result = 90.3%
Compound = Oc1cc2c(cc1O)C(c1ccccc1)CNCC2 (stereo not drawn); result = 105%
Compound = Fc1ccc(C(OCCCc2cnc[nH]2)c2ccc(F)cc2)cc1; result = 98.8%
Compound = CN(C)CCc1c[nH]c2ccc(CS(=O)(=O)N3CCCC3)cc12; result = 81.9%
